# Results pooled from the literature.
# “And” joins repeats or separate records; there may be more than shown.
# ADRB1: Beta-1 adrenergic receptor (ADRB1, Homo sapiens, UniProt P08588)
# Chain of UniProt P08588 (whole entry, looked up): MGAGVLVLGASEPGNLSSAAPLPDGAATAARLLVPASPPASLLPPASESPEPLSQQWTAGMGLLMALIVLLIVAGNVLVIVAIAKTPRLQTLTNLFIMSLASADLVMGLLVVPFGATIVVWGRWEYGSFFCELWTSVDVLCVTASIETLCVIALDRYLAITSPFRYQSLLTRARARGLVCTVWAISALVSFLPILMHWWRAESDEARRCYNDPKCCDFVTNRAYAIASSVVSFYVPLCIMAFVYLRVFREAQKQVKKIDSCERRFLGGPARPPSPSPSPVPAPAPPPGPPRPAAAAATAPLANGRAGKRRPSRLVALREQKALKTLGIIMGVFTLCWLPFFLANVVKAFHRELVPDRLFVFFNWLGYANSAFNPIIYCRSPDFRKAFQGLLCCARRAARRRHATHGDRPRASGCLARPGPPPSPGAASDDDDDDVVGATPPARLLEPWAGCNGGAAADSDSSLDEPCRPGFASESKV
# Chain of UniProt P31749 (whole entry, looked up): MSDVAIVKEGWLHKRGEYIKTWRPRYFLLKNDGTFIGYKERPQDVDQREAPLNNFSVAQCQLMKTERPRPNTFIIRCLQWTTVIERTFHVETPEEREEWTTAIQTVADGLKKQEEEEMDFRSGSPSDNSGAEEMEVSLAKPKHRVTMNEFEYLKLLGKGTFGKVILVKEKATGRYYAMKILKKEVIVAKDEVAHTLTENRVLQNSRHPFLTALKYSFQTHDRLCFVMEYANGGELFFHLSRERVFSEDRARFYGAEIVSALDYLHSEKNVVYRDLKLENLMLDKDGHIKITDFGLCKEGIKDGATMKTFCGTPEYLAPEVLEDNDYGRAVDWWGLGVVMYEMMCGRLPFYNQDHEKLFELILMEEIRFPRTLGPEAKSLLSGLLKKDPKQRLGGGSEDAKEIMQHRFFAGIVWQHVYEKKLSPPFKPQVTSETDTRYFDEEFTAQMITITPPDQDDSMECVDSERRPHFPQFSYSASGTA
# Chain of UniProt P38919 (whole entry, looked up): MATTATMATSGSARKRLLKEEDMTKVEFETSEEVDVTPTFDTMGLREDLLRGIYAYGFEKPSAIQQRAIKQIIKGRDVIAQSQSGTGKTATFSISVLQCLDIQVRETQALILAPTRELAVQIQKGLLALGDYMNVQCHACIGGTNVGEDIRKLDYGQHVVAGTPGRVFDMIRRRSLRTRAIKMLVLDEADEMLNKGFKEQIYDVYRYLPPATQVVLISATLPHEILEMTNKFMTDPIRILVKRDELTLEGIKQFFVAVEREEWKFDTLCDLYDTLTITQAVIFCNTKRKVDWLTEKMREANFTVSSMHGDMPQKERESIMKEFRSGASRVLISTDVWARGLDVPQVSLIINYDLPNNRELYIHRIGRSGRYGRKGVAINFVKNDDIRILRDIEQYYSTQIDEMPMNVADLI
Compound,target or system,assay,test system,setting,measurement,value
C=CC(=O)Nc1ccc2[nH]c(=O)n(C3CCN(Cc4ccc(-c5ccc6c(c5)NC(=O)CO6)cc4)CC3)c2c1,"AKT1 (Homo sapiens, UniProt P31749)","target engagement in cells, BRET",,,IC50,1.9 µM
CO[C@H]1C[C@H](O[C@@H]2/C(C)=C/C[C@@H]3C[C@@H](C[C@]4(CC[C@H](C)[C@@H](C5CCCCC5)O4)O3)OC(=O)[C@@H]3C=C(C)/C(=N/O)[C@H]4OC/C(=C\C=C\[C@@H]2C)[C@]43O)O[C@@H](C)[C@@H]1O,Plasmodium berghei,,"Huh-7, GFP-expressing","10 µM, 24 h, liver stage",inhibition,57.4%
Clc1ccccc1COc1cccc(N2CCNCC2)c1,ADRB1,antagonist,,,IC50,8.91 µM
CN1CCC[C@H]1c1cccnc1,Plasmodium berghei,,"Huh-7, GFP-expressing","10 µM, 24 h, liver stage",inhibition,7.76%
NCCc1cc(=O)oc2cc(O)c(Cl)cc12,ADRB1,antagonist,,,IC50,≥ 100 µM
COc1ccc([C@@]23Oc4cc(OC)cc(OC)c4[C@]2(O)[C@@H](O)C[C@H]3c2ccccc2)cc1,"Eukaryotic initiation factor 4A-III (Homo sapiens, UniProt P38919)","RNA clamping, fluorescence polarization",,"concentration not given, mean of two replicates, added: FAM-labelled poly r(AG)8 RNA",fluorescence polarization change,21.9 mP
Cc1ccc(CNCCc2c[nH]c3ccccc23)cc1,ADRB1,antagonist,,,IC50,≥ 100 µM
O=C1CCC(N2Cc3c(ccc4c3OCC43CCN(Cc4ccccc4)CC3)C2=O)C(=O)N1 (centres unmarked),,,"ICR mice, male, plasma","intravenous, 1.0 mg/kg",steady-state volume of distribution,5.12 L/kg and 3.63 L/kg

# A few entries again:
Compound,target or system,assay,test system,setting,measurement,value
O=C1CCC(N2Cc3c(ccc4c3OCC43CCN(Cc4ccccc4)CC3)C2=O)C(=O)N1 (centres unmarked),,,"ICR mice, male, plasma","intravenous, 1.0 mg/kg",steady-state volume of distribution,5.12 L/kg and 3.63 L/kg
